Measured values pooled from the literature.
A part holds a random share of what one study measured.

Block 1 — method: RNA Bind-n-Seq; molecule type: RNA; matrix: in vitro; concentration: not given; setting: RNA with constant flanks, ends assumed; baseline: input RNA pool; reading: higher = stronger binding
Target: RING finger protein unkempt homolog, zinc fingers 1-6, GST-SBP tag (UNK, Homo sapiens, UniProt Q9C0B0, residues 30-357)
All sequences stand within: GGGAGUUCUACAGUCCGACGAUC … CAACAGAGGAUUGAGCAUCA
Residues (chain): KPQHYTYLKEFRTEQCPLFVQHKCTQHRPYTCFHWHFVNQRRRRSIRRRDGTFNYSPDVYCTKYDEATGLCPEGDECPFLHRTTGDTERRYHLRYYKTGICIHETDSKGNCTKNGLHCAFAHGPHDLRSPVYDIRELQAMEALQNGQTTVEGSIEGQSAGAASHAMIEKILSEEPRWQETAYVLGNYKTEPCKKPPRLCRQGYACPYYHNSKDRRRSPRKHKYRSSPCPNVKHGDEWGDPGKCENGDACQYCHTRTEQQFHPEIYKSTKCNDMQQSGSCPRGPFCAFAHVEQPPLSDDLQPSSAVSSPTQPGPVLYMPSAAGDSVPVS
Strand	bound/input enrichment
AAGAGGGAUCUGUUUGCAAAAAUUAUUGAAGAUCAUCUGGCAAGCAGAAGUGAAGAGAACACCGACCAGCUUGCAGGAUGAACAAGCUGCCCUGUUAGUGCAGUGCUUUGAAGUGGGACC	0.201 ratio
AAAAAAAAGCCUAUUAAUAGGGUUUCUGCGCGGUGCAGGGUUGUAAACCUGCUUUAUCUUUCCGGAUUAUUCCUAAAUGCAUCUUCUUUAUAAACUUGACUUGCUAUCUCAGCAAGAUAA	0.126 ratio
GCCCGGAAAACUGUGAAAAAAAUACUUAGUGACAUUGGGUUGGAAUACUGUAAAGAACAUACCGAAGAUUUUAAACAGUUUGAACCUAAUGACUUUUAUUUGAAAAACACUACAUGGGAG	0.322 ratio
ACUAUCUGAAGAUUUCCAUUUGUCAAAAAGUAAUGAUUUCUUGAUAAUUGUGUAGUAAUGUUUUUCCGAACCCAGCAGUUACCUUAAAGCUGAAUUUAUAUUUAGUAACUUCUGUGUUAA	0.582 ratio
GCUCUGACUGUAUAGAGAGGGGUGUGCACAUAUGUCCCCACCCUCCGGUCUUCCUUUCCUUUCCGGGUGACACUACAGAGUCAUUCAGCCAAAUCCGUCUACUGCCUCUCCUCCUCAGCC	0.224 ratio
UUGGAACAGGCUGAUGAAGACUUAGCUACCGGCUUGGCAUUGAUUGACCUGGGUCAGAGUACCGAUAUGAAACUUUUCCCUAAAGGAACUGUAUUUACAGGAAAAUGUGAAACAUCUGGU	0.0671 ratio
UCUAUUGCUACAAGAGAGGGAGUUACCGUUUUGUAUUCUAAACUGAUCAGCAAUAAGGAAGCCGUACCUUUGCCUCAACAGGUUUUAUGCCUCAAAGGACCACAGUUGCCUGAUUUUGAA	0.13 ratio
GAUCCAGAGGAAGAGGAGGUUGAGAAGGAAGGGAAUGCCACUGUGAGUUUCUCACAGGCCCUGGCCGAGUUCACCAGCAAUGGGAACCUCUUUUCCAGCAUGUCCUGCAGCUCUGACUCU	0.12 ratio
UCGUGGGCCCCUGAGGACGCCUGGAUGGGCACUCACCCUAAGUAUCUAGAAAUGAUGGAAUCCGAUACCGGAGAUGCCACCCAAGUUUAUGUAGCGUUCUUGGUUUACCUGGACCUCAUG	0.28 ratio
UUGGUUAAUGUGUUAUUUAUUGAGUAUUGUUUGUGCUAAGCAUUGUGUUAGAUUUAAAAAAUCCGUGGAUUGACUCCACUUUGUUGUGUUGUUUUCAUUGUUGAAAAUAAAUAUAACUUU	2.14 ratio
UGGCGGCGGCUUUGGCUCUGAGGGACAGGGGUAGUGUUCCUGGUUUUGGUGGGGUUUGCCUUCCGUUUAAUUUUCCUUUUCUAGCUUCCCUUUGCCGGCUGGUGCGUACGUUGUAGUCCC	0.887 ratio

Block 2 — method: aptamer microarray, sandwich; molecule type: DNA with 2'F-ANA; matrix: in vitro; concentration: 200 nM; added: Cy3 exosite-II aptamer, 400 nM; reading: higher = stronger binding; strand: GGTTGGTGTGGTTGG
Target: Prothrombin, mature alpha-thrombin (F2, Homo sapiens, UniProt P00734)
Setting: whole 15-mer aptamer, many near background
Modification	mean fluorescence intensity [a.u.]
2'F-ANA at 1 2 3 6 7 9 10 13 14 15	58.4
2'F-ANA at 1 2 3 6 8 9 12 14	85.6
2'F-ANA at 3 4 5 6 7 9 12 13 14 15	51.5
2'F-ANA at 5 8 10 11 13 14	52.8
2'F-ANA at 1 2 3 6 8 9 10 11 14	51.3
2'F-ANA at 5 8 11 12 13 14 15	50
2'F-ANA at 4 5 7 8 9 10 11 13 14 15	44.3
2'F-ANA at 2 4 6 7 8 9 10 11 14	61.4
2'F-ANA at 5 9 11 12 13 15	79.5
2'F-ANA at 2 3 4 11 12 13	712
2'F-ANA at 1 2 5 6 7 8 9 11 12	102
2'F-ANA at 3 4 8 9 14	327
2'F-ANA at 1 5 9 13 14	53.4
2'F-ANA at 5 8 9 10 13 14 15	45.9
2'F-ANA at 4 5 6 7 9 11 14 15	44.8
2'F-ANA at 2 3 4 5 7 10 11	54.3
2'F-ANA at 1 3 6 7 8 11 12 13 14	132
2'F-ANA at 1 2 3 6 8 10 13	61.2
2'F-ANA at 2 4 5 6 7 8 9 11 12 13 14	55.3
2'F-ANA at 1 3 5 8 11 13 14	48.1
2'F-ANA at 1 2 3 4 8 9 10 12 13	62.7
2'F-ANA at 2 5 8 13 15	57.3
2'F-ANA at 1 3 4 5 12 14 15	54.9
2'F-ANA at 1 2 8 11 13 14 15	57.7

Block 3 — method: RNA Bind-n-Seq; molecule type: RNA; matrix: in vitro; concentration: 365 nM; baseline: no-protein control; reading: higher = stronger binding
Target: RNA binding protein fox-1 homolog 2, RRM domain, GST-SBP tag (RBFOX2, Homo sapiens, UniProt O43251-10, residues 100-194)
Setting: natural RNA segment, single round, ends assumed
All sequences stand within: GGGAGUUCUACAGUCCGACGAUC … UGGAAUUCUCGGGUGCCAA
Target sequence (chain): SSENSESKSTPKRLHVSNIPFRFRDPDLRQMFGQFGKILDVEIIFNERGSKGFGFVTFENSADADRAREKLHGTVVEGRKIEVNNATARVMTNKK
Strand	RBNS enrichment (R)
UGUUGCAGCUUUACGGUUUUUAAACUAUUUUAGAUAUUCUUAAACUAUGAACCUUCUAAACAGUACCAACACUGUCAUGUGACUAAUGCUGCCUCUAGACCUCGCCCACG	0.246
AAGGCCAGAAGGGGCUUAUAAUGACUUCUCUUCUAGAAUUGUAAUACUAAAAAACUACUCGAGUAAAUAUCCUAACAAGUAUGAUUUUUCUUGGGAAAACUAAAAAUUGU	0.566
AAUUCUAAAUAUUUGAUUAAUUUUAAUUCUGAAAGAAAAUUUUGAGGAUUUAAGCUUAGGGGAUUUUAUUUUUAUAAAUACCAGAUUAUUGUUAGACUUAAUAAAUCACU	0.551
CCUUUGGGGACCAGAAGGGGAGAUGUGCUCCCAGAGCCUCUCUGCUGUAAGACCCCAGCUUUUCCUGGAAGAUGGGACUCUGGGGUGUGUGGUGCUCACCAGAGUCAGGC	0.359
UGGUGGGAGCCUCUGGCUGCAUCUGUGCAGCCACAUCCUUGUACAGAGGCAUAGGUUACCACCCCCACCCCGGCCCGGGAUACUGCCCCCGGCCCAGAUCCUGGCCGUCU	0.165
GAAAAAUAAUUUAGCUGUGUUUUAGACAGCAUUAGAAUAUAUUGUUCAGCACAGUAAAAUAUAUUUGAAAUUUGAUAAGCCAAAAAUGUGGUUUUGAAUGAAUAUUUUGU	0.945
GGUGAGGGAGGGAUCUAAGUAGAAAAAGAUGAGUUCUGAUCUUCUUUAUCUCUUCUAAACUGUGUUUAUAUUGCUCUGGGUCCAACAACACUAAAUCAUAGUUUAACACA	0.364
UAUCAUGACUGGCUUUGGGAAAAUCAUGAAAAAUUAAGUCUAUCUUAAACUCUGCAGCUUUCAAGCUCAUCUGUUAUGCAUAGCUUUGCACUUCAAAAAAGCUUAAUUAA	1.07
AGGGAAUUAGGCAGAACAGAUUUCUAGGUUGGGUAGGCCACUGCAUUCUCUUUUGUUUGCAAAUUGGUCAACAAAAUUUGCAAAGUGAUUUCAGGAGAGAGCAGCUUUGA	0.54
AUGGCAUGUCUUUCUUUUUCUGCCAGAAAAUCUAUUUUAAGAAACCAGAAUAGUCAACAGUGUUCAAAAGAAUUGACUAGUUAUCCCUGAGGCCCUUUCAAACAUGAUCA	0.602
CUCUGAGGCACAGGGCGAGCAGGGACCAAGUAGCAGACGAGUCGAUGCUUCACCUGGCAUCUAGCCACUGCCUCCCACUUCUAGCAGAACUGGGUCAGCAGCCCUGUUCU	0.264
AGUCUGGGGCACAAGCUGAGCCGCUGACUAGCAAUGCCUACAGCCUUUCCCAAUGCCCUUGCCUGCCCUGGAGCUUCUAGGGCCACCUCUAGCAUCUGGAGACCGAAUAU	0.575

Block 4 — method: protein-binding microarray; molecule type: double-stranded DNA, one strand shown; matrix: in vitro; concentration: 940 nM top; setting: 60-bp whole probe; added: salmon DNA 0.4 mg/ml; baseline: random background probes; reading: higher = stronger binding; all sequences stand within: GCCTAGCAC … GTCTTGATTCGCTTGACGCTGCTG
Target: Interferon regulatory factor 5, full length, phosphomimetic (IRF5, Homo sapiens, UniProt Q13568-2, residues 1-514, S451D/S453D/S456D/S462D)
Strand	fitted relative affinity
GACTGTTTCGGTATCGGGACGTGCTAG	7.74 z-score
TCAAGGCCAGGGTTTCTGTTGTGCTAG	0.58 z-score
GACGGTTTCGGGTCTCGGGACGTGCTA	9.22 z-score
TCAAGGTTCTCTTTTATACTGTGCTAG	0.303 z-score
TTAGGTTTCCTTGTCCTTTAGTGCTAG	1.6 z-score
GAGGAACTGAGTATCGAGACGTGCTAG	1.04 z-score
TTAGGTCTCGGTTTCGGTTTGTGCTAG	9.45 z-score
GACGGACTGGGGAGTGGGGACGTGCTA	-0.103 z-score
CATCGTAAGCAAAAATGATTGTGCTAG	-0.542 z-score
TTAGATCTCCGTTTCGATTAGTGCTAG	3.04 z-score
GACTCTTCAGCACTCGGGTCGTGCTAG	0.00492 z-score
TTCGGTATCCTTTTCCTTTAGTGCTAG	1.16 z-score
TTAGATACCAGTATCGATTAGTGCTAG	4.63 z-score
GACGGTATCGGGACTGGGAACGTGCTA	3.06 z-score
TCAAAGTTCTTTTTTTCACTGTGCTAG	0.729 z-score
GACGGTTTCCTTTCGCTGACGTGCTAG	2.52 z-score
TCACATCTAGTTCTGCTACTGTGCTAG	0.276 z-score
TCAGTCCTCCTGACTGGGACTGTGCTA	-0.321 z-score
TTTGCTCTGTGCATAGGCCTGTGCTAG	-0.429 z-score
AACTAAAGAGACCACAAAAAGTGCTAG	0.332 z-score
TTAGGTATCGGACTGGCTTAGTGCTAG	3.76 z-score
GACGATATCAGTTTCGAGACGTGCTAG	4.4 z-score
TTTCCTTTATGTCCTGTCTAGTGCTAG	2.78 z-score
TTAGGTCTCGGTCACGGTTAGTGCTAG	4.62 z-score
TTAGGTTTCGACTATCGCTTAGTGCTA	9.46 z-score
